Experimental data gathered from unrelated publications.
Each line is one published result; not all experiments were run side by side. ± marks the error that the study gave.
B1: sequence looked up; chain QEPTDTPVSHDDTIVVTAAEQNLQAPGVSTITADEIRKNPVARDVSKIIRTMPGVNLTGNSTSGQRGNNRQIDIRGMGPENTLILIDGKPVSSRNSVRQGWRGERDTRGDTSWVPPEMIERIEVLRGPAAARYGNGAAGGVVNIITKKGSGEWHGSWDAYFNAPEHKEEGATKRTNFSLTGPLGDEFSFRLYGNLDKTQADAWDINQGHQSARAGTYATTLPAGREGVINKDINGVVRWDFAPLQSLELEAGYSRQGNLYAGDTQNTNSDSYTRSKYGDETNRLYRQNYALTWNGGWDNGVTTSNWVQYEHTRNSRIPEGLAGGTEGKFNEKATQDFVDIDLDDVMLHSEVNLPIDFLVNQTLTLGTEWNQQRMKDLSSNTQALTGTNTGGAIDGVSTTDRSPYSKAEIFSLFAENNMELTDSTIVTPGLRFDHHSIVGNNWSPALNISQGLGDDFTLKMGIARAYKAPSLYQTNPNYILYSKGQGCYACAGGCYLQGNDDLKAETSINKEIGLEFKRDGWLAGVTWFRNDYRNKIEAGYVAVGQNAVGTDLYQWDNVPKAVVEGLEGSLNVPVSETVMWTNNITYMLKSENKTTGDRLSIIPEYTLNSTLSWQAREDLSMQTTFTWYGKQQPKKYNYKGQPAVGPETKEISPYSIVGLSATWDVTKNVSLTGGVDNLFDKRLWRAGNAQTTGDLAGANYIAGAGAYTYNEPGRTWYMSVNTHF
Sequence of UniProt Q7RTT9 (whole entry, unmodified, looked up): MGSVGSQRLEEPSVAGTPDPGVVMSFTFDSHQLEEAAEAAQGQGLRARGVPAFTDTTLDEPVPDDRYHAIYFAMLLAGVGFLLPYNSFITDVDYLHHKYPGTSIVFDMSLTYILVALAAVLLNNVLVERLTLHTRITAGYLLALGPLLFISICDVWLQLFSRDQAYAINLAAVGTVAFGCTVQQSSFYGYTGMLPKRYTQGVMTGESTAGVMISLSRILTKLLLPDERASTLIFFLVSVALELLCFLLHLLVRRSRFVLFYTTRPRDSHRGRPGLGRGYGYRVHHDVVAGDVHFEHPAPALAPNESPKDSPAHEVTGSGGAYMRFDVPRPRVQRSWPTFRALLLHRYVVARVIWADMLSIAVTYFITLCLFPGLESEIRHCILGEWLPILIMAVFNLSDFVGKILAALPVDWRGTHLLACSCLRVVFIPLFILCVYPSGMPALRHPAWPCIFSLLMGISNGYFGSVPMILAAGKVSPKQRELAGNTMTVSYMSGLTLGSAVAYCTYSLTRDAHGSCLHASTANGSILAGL
Sequence of UniProt Q8IIJ9 (whole entry, looked up): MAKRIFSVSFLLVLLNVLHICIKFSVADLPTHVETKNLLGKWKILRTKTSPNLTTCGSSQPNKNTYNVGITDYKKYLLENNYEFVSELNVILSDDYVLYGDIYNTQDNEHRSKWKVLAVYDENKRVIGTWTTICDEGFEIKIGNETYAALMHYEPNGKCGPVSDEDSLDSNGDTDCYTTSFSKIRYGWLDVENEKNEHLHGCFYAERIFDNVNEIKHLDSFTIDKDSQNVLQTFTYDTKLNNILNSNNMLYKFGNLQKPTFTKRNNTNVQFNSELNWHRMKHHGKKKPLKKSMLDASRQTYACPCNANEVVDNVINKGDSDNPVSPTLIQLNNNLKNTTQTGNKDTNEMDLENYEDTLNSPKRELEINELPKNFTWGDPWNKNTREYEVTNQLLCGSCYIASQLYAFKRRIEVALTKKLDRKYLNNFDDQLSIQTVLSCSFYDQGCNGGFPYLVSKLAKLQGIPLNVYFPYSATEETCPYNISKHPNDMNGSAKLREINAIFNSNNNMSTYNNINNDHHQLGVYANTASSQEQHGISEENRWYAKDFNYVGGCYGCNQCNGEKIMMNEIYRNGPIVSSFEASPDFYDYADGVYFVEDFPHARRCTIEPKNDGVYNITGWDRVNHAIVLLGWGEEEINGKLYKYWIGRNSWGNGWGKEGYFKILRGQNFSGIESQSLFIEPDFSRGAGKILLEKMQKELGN
Sequence of UniProt Q8NKB0 (whole entry, unmodified, looked up): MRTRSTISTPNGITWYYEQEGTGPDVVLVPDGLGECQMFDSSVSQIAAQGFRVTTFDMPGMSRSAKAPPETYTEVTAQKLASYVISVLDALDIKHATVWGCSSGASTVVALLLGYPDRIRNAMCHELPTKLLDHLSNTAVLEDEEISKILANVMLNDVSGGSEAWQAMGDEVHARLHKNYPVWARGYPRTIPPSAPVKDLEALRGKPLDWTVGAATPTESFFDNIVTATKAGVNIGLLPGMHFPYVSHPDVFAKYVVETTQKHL
Sequence of UniProt P9WHK7 (whole entry, looked up): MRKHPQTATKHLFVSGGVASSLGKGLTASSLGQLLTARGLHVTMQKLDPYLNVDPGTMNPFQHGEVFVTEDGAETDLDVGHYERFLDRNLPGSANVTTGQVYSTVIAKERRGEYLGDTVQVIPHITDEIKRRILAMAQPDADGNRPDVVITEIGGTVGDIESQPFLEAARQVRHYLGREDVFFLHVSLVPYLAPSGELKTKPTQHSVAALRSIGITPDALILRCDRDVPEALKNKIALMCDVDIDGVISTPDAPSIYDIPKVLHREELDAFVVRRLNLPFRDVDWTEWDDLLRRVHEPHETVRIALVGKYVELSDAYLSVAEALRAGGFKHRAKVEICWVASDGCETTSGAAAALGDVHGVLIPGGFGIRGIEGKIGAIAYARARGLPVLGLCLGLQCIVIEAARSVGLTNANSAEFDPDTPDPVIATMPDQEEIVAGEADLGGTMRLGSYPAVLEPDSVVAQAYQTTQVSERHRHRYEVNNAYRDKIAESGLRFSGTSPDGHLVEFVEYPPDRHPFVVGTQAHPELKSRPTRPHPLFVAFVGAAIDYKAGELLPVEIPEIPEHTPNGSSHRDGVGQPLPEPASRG

Substance	tested on	assay	test system	setting	how to read	endpoint	value
C[n+]1ccc(-c2ccccc2)cc1	SLC29A4 (Homo sapiens, UniProt Q7RTT9, I89M)	uptake, substrate	MDCK expressing YFP-PMAT I89M	1 min, 37 °C		Km	60.1 ± 23.3 µM
CN1C(=CC=CC=CC2=[N+](CCCCCC(=O)NCCCC[C@H](NC(=O)[C@H](CCCCNC(=O)COCCOCCOCCNC(=O)[C@H](Cc3ccccc3)NC(=O)[C@H](CCCNC(=N)N)NC(=O)[C@@H]3CCCN3C(=O)[C@H](CC(N)=O)NC(=O)[C@@H]3CCCN3C(=O)[C@H](CO)NC(=O)[C@@H](N)CCCCN)NC(=O)COCCOCCOCCNC(=O)[C@H](CCC(=O)O)NC(=O)[C@H](CCCNC(=N)N)NC(=O)[C@@H]3CCCN3C(=O)[C@H](CCCCN)NC(=O)[C@H](Cc3c[nH]cn3)NC(=O)[C@H](CCCNC(=N)N)NC(=O)[C@@H](N)CCC(N)=O)C(N)=O)c3ccc4ccccc4c3C2(C)C)C(C)(C)c2c1ccc1ccccc21		Barrett's neoplasia detection, confocal microscopy	human esophageal biopsies	0.5 µM, T/B ratio cutoff 5.9		sensitivity	88%
CC1=C(C)C(=O)C(C)=C(C)C1=O	Reaction center protein M chain, QA site (pufM, Cereibacter sphaeroides, UniProt P0C0Y9)	P+QA- formation, flash absorbance at 605 nm	Cereibacter sphaeroides, QA-depleted reaction centers	pH 8.0, 22 °C, oxidized neutral quinone at QA site		binding free energy	-8.57 kcal/mol
Nc1ncnc2c1ncn2[C@@H]1O[C@H](COP(=O)(O)OP(=O)(O)OP(O)(O)=S)[C@@H](O)[C@H]1O	CTP synthase (pyrG, Mycobacterium tuberculosis, UniProt P9WHK7)	ATP probe labelling, competitor, chemoproteomics	Mycobacterium tuberculosis, lysate	500 µM	reference: untreated	fold change	4.67 fold
C[C@H]1CCCC(=O)CCC/C=C/c2cc(O)cc(O)c2C(=O)O1	zhd101 (Clonostachys rosea, UniProt Q8NKB0, D157K)	substrate, HPLC		10 min, pH 5.5, 37 °C, 1% acetonitrile		Km	20800 ± 1770 µM
C=CC(=O)Nc1cc2c(Nc3ccc(F)c(Cl)c3)ncnc2cc1C#CC(C)(C)N1CCN(C)CC1	NIH3T3 in PANC/NIH microtissues	fibroblast toxicity		chronic toxicity, unit not given	reference: AC50 ATP over AC50 NanoLUC, day 7	therapeutic window	2.34
B1		loop conformational motion, stopped-flow fluorescence	outer membrane fragments	fluorescein-labelled, first decay phase, added: ferric enterobactin 200 nM		quenching rate constant	2.32 s⁻¹
CC[C@H](C)[C@@H]1NC(=O)[C@H](CCCNC(=N)N)NC(=O)[C@H](CC(=O)O)NC(=O)[C@H](CC(C)C)NC(=O)[C@H](CCCCN)NC(=O)[C@H](CC(C)C)NC(=O)CNC(=O)[C@H](Cc2ccccc2)NC(=O)[C@@H](NC(=O)CNC(=O)[C@H](CCCCN)NC(=O)[C@H](CO)NC(=O)[C@H](CC(C)C)NC(=O)CNC(=O)[C@H](CCCCN)NC(=O)[C@H](CCCCN)NC(=O)[C@H](CC(N)=O)NC(=O)[C@H](C)NC(=O)CNC(=O)[C@H](CCCCN)NC(=O)[C@H](Cc2ccc(O)cc2)NC(=O)[C@H](CCCCN)NC(=O)[C@H](CCCNC(=N)N)NC(=O)[C@H](C)NC(=O)[C@H](CC(N)=O)NC(=O)[C@@H]2CCCN2C(=O)[C@H](Cc2c[nH]cn2)NC(=O)[C@H](CCC(=O)O)NC(=O)[C@H](CCC(N)=O)NC(=O)CNC(=O)[C@@H]2CCCN2)CSSC[C@@H](C(=O)O)NC(=O)CNC(=O)[C@H](CC(C)C)NC(=O)CNC(=O)[C@H](CO)NC(=O)[C@H](CCSC)NC(=O)[C@H](CO)NC(=O)CNC1=O		item: urine cGMP/creatinine	human patients with achondroplasia, urine	initial 6 months, sigmoid Emax vs AUC(0-t)		Emax	11800 pmol/mg creatinine
CCCCC(C(=O)COC(=O)c1c(C)cccc1C)n1cc(C2(N)CCCCC2)nn1 (stereo not shown)	DPAP1 (Plasmodium falciparum, UniProt Q8IIJ9)	inhibitor	parasite lysate	added: (Pro-Arg)2-rhodamine substrate		second-order inactivation rate constant	34 M⁻¹ s⁻¹
CCCCC/C=C\C/C=C\C/C=C\C/C=C\CCCC(=O)NCCO		uptake, substrate	human healthy brain synaptosomes	15 min, specific uptake, 37 minus 4 °C		Km	0.802 ± 0.15 µM

For quick reference, copied from above:
Substance	tested on	assay	test system	setting	how to read	endpoint	value
CC1=C(C)C(=O)C(C)=C(C)C1=O	Reaction center protein M chain, QA site (pufM, Cereibacter sphaeroides, UniProt P0C0Y9)	P+QA- formation, flash absorbance at 605 nm	Cereibacter sphaeroides, QA-depleted reaction centers	pH 8.0, 22 °C, oxidized neutral quinone at QA site		binding free energy	-8.57 kcal/mol
